Experimental data pooled from the literature.
Every numbered part comes from another study and shows a few of its results, in no order. Positions count from the first letter of the parent shown.
UniProt Q9LQE8, sequence (whole entry, looked up): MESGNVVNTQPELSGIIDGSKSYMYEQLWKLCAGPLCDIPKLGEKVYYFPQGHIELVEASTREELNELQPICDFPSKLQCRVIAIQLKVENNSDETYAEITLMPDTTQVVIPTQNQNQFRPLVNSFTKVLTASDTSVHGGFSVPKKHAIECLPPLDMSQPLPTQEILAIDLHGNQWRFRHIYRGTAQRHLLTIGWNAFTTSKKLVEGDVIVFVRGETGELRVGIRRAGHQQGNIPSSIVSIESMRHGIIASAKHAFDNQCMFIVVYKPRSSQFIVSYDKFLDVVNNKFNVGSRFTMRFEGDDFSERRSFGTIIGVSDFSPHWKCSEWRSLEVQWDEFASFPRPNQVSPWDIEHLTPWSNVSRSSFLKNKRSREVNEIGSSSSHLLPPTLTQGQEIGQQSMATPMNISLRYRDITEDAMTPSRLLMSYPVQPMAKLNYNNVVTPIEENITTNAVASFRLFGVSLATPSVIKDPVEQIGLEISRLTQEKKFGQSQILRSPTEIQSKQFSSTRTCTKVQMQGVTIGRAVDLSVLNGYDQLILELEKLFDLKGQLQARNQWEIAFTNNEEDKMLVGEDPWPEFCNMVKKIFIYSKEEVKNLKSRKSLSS
UniProt Q9C5W9, sequence (whole entry, looked up): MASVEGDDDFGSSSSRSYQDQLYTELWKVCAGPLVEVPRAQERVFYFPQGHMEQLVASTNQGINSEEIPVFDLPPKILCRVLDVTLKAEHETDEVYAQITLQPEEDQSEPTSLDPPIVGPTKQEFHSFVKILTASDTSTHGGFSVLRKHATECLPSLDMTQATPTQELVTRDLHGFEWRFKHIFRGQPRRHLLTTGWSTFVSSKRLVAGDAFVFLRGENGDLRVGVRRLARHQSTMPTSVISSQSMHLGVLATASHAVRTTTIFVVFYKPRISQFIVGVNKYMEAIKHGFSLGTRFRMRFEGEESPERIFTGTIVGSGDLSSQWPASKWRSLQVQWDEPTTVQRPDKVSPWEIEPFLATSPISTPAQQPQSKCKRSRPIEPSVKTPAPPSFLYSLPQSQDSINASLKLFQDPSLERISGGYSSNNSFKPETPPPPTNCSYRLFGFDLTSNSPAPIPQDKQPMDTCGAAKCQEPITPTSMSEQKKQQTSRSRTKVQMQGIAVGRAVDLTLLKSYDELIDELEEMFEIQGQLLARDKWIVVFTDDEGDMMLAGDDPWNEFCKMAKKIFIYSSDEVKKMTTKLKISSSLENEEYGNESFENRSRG
UniProt P93830, sequence (whole entry, looked up): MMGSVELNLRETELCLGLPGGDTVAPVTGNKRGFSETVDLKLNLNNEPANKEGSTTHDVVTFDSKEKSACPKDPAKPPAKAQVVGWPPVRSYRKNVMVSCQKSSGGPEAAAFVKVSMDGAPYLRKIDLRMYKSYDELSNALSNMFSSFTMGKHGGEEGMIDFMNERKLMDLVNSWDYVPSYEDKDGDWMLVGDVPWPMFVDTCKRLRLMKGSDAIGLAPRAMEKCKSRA
UniProt Q9ZTX9, sequence (whole entry, looked up): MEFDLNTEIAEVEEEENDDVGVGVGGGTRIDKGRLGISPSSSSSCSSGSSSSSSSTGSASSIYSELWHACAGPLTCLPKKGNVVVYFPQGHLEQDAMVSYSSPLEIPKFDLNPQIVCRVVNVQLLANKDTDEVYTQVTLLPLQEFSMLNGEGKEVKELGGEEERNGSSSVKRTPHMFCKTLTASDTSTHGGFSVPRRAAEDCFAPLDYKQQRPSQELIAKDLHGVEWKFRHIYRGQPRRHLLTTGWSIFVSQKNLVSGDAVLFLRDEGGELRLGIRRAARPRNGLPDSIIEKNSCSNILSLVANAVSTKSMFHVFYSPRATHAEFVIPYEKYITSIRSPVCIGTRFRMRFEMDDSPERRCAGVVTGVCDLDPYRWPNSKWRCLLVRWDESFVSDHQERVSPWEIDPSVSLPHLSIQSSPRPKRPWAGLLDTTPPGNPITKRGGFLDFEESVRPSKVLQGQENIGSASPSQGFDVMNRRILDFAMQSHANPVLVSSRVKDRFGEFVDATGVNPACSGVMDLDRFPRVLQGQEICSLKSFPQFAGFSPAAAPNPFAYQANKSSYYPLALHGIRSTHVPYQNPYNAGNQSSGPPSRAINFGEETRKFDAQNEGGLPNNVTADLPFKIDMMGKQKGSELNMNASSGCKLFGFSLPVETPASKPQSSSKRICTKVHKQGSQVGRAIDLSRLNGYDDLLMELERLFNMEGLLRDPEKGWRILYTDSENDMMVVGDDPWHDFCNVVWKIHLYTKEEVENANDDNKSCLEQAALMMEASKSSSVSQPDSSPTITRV
UniProt Q9XID4, sequence (whole entry, looked up): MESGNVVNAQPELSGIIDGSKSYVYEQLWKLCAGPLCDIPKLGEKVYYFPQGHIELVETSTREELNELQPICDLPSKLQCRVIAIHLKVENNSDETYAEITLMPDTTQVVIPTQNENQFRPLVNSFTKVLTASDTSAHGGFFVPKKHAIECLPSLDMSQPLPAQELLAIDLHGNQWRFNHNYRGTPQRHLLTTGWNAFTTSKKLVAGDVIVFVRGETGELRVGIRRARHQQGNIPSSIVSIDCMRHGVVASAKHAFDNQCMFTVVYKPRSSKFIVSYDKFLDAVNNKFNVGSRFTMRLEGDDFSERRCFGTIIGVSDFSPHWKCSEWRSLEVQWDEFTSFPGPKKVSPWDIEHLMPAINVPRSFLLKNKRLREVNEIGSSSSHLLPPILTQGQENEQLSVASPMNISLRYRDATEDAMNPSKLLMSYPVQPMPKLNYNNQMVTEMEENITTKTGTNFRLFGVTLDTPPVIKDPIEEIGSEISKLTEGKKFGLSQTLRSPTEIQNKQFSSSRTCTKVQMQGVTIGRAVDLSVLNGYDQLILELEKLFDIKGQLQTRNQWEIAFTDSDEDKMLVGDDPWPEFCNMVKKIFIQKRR
UniProt Q9C7I9, sequence (whole entry, looked up): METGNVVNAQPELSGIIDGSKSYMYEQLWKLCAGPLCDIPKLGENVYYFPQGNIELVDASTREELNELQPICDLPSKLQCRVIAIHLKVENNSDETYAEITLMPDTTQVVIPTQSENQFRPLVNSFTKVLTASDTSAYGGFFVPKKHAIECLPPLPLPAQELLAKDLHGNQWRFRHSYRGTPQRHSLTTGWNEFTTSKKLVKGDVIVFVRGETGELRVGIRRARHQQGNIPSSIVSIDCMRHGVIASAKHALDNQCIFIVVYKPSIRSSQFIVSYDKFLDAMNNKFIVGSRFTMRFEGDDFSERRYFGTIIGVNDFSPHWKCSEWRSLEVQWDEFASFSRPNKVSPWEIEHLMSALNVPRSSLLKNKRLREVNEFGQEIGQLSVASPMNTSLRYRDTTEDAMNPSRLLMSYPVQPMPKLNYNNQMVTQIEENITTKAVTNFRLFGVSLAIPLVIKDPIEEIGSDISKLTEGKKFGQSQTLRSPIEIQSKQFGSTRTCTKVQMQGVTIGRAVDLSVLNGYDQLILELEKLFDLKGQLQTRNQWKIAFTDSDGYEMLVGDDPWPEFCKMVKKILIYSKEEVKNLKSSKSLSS
UniProt Q8H174, sequence (whole entry, looked up): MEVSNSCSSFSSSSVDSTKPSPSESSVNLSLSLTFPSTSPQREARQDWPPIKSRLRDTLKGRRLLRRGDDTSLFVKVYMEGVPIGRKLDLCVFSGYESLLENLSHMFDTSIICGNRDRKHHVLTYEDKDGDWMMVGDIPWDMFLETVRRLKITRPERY

Series 1 — target: ATF1, bZIP domain (human); technique: DHFR protein complementation; matrix: yeast; baseline: wild-type JUN-FOS pair; reading: higher = stronger binding
Notes: single substitutions, most at no-binding floor
Starting sequence: JUN, bZIP domain (human); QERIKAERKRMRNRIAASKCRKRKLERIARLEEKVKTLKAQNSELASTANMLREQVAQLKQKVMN; partner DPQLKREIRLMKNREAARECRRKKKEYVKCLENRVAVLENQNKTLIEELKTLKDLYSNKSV
With `R53Q` the binding fitness was -1.54 natural log.
`N42V` has a binding fitness of -1.49 natural log.
The binding fitness of `E32K` is reported as -1.56 natural log.
`A49W` has a binding fitness of -1.49 natural log.
With `S43E` the binding fitness was -1.41 natural log.
`T48Q` has a binding fitness of -1.44 natural log.
`K34N` has a binding fitness of -1.38 natural log.
The binding fitness of `S43Q` is reported as -1.31 natural log.
With `Q41I` the binding fitness was -1.35 natural log.
The binding fitness of `E54A` is reported as -1.46 natural log.
The binding fitness of `N42Q` is reported as -1.58 natural log.
For `I28P`, the binding fitness was -1.51 natural log.
With `A46E` the binding fitness was -1.48 natural log.
`S47T` gave a binding fitness of -1.44 natural log.
For `T37D`, the binding fitness was -1.52 natural log.
`E44F` gave a binding fitness of -1.59 natural log.
With `K39R` the binding fitness was -1.44 natural log.
For `S43G`, the binding fitness was -1.53 natural log.

Series 2 — target: CCNF, cyclin fold, Cln2 fusion (human); technique: yeast growth competition, sequencing; matrix: yeast; notes: weak parent motif; baseline: not given; reading: higher = stronger binding
Starting sequence: PKN2 docking peptide (human); VSAVQKLDFSDTM; partner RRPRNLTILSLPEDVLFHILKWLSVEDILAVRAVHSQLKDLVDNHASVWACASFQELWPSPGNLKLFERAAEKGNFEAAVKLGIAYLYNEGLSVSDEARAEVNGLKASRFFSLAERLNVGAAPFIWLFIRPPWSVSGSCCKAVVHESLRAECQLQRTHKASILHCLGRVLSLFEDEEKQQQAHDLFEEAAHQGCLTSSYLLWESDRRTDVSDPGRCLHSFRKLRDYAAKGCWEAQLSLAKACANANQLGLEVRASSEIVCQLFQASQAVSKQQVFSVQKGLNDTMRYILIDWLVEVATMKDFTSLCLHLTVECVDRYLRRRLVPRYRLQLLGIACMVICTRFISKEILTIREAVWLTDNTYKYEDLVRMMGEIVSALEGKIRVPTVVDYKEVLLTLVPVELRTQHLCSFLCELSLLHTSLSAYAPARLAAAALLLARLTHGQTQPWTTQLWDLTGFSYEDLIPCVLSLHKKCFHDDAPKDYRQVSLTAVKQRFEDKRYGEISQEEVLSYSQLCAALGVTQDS
`S10F`: “normalised enrichment score” 0.109.
For `V4W`, “normalised enrichment score” read -0.383.
`K6A`: “normalised enrichment score” -0.541.
Under “normalised enrichment score”, `V4A` is recorded as -0.487.
`K6C`: “normalised enrichment score” 0.42.
Under “normalised enrichment score”, `A3S` is recorded as -0.73.
`T12Q` — result for “normalised enrichment score”: 0.575.
For `V4Q`, “normalised enrichment score” read 1.09.
`A3W` — result for “normalised enrichment score”: 0.251.
Under “normalised enrichment score”, `V1M` is recorded as 1.22.
For `S2R`, “normalised enrichment score” read 1.84.
Under “normalised enrichment score”, `T12Y` is recorded as 1.63.
`S10G`: “normalised enrichment score” 1.59.
For `V4L`, “normalised enrichment score” read -0.212.
`V1L`: “normalised enrichment score” 1.23.
For `L7M`, “normalised enrichment score” read -0.489.
`V4Y`: “normalised enrichment score” 0.0256.
`A3Q` — result for “normalised enrichment score”: -0.53.
`D11K` — result for “normalised enrichment score”: 0.702.
`D11M`: “normalised enrichment score” 1.35.
`S2T`: “normalised enrichment score” 0.64.
`D8F` — result for “normalised enrichment score”: 1.42.

Series 3 — Sequence: B1 (IAA11); technique: two-hybrid; notes: weak activation fusion; reading: higher = firmer interaction
B1: IAA11 (Arabidopsis thaliana, UniProt Q38829); chain MEGGSASGSASALSNDENLVVSCEDSSSPIGNELELGLTLSLGRKGYRDCRVYADDSSSSSSSSSLSRASVIAGIKRTADSMAATSGQVVGWPPIRTYRMNSMVNQAKASATEDPNLEISQAVNKNRSDSTKMRNSMFVKVTMDGIPIGRKIDLNAHKCYESLSNTLEEMFLKPKLGSRTLETDGHMETPVKILPDGSSGLVLTYEDKEGDWMLVGDVPWGMFIGSVRRLRIMKTSEATGKAQMIL
It gave 0 for positive tests (ARF12 500-593 (Arabidopsis thaliana, UniProt Q9XID4); baseline: out of 4 tests).
The positive tests was 0 (IAA17 (Arabidopsis thaliana, UniProt P93830); baseline: out of 2 tests).
It gave 1 for positive tests (ARF18 482-602 (Arabidopsis thaliana, UniProt Q9C5W9); baseline: out of 4 tests).
For IAA31 (Arabidopsis thaliana, UniProt Q8H174); baseline: out of 2 tests: positive tests read 0.
ARF20 484-590 (Arabidopsis thaliana, UniProt Q9C7I9); baseline: out of 4 tests — positive tests: 0.
It gave 0 for positive tests (ARF14 497-605 (Arabidopsis thaliana, UniProt Q9LQE8); baseline: out of 2 tests).
It gave 0 for positive tests (ARF4 660-788 (Arabidopsis thaliana, UniProt Q9ZTX9); baseline: out of 2 tests).

Series 4 — technique: DHFR PCA, deep sequencing; matrix: yeast; together with: (+)-ABA 0 µM; baseline: wild-type fitted maximum; reading: higher = stronger binding
Target: ABI1, truncated, D143A, DHFR fusion (Arabidopsis thaliana)
Notes: methotrexate growth selection, single substitutions
Starting sequence: PYL1, truncated, DHFR fusion (Arabidopsis thaliana); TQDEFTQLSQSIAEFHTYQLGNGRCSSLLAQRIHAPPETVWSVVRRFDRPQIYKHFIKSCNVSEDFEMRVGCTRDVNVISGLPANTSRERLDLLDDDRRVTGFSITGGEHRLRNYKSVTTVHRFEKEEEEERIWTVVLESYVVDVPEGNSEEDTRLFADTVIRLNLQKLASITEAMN; partner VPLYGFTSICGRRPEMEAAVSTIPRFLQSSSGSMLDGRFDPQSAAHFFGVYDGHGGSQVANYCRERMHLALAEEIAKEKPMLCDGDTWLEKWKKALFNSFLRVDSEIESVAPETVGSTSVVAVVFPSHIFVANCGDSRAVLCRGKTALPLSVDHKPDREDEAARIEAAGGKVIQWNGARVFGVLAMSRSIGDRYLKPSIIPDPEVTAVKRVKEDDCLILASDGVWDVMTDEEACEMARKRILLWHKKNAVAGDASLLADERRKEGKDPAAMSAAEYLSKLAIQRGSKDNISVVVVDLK
`G107L` — result for “relative binding score”: -1.96%.
For `F15Y`, “relative binding score” read 25.8%.
Under “relative binding score”, `G21P` is recorded as 7.73%.
Under “relative binding score”, `T101N` is recorded as -0.869%.
`R123W`: “relative binding score” -5.22%.
`G108P` — result for “relative binding score”: -1.27%.
`D75A`: “relative binding score” 11.7%.
For `F15T`, “relative binding score” read -2.53%.
`N149G`: “relative binding score” 61.1%.
For `H110M`, “relative binding score” read 26.7%.
`W41D` — result for “relative binding score”: 1.49%.
Under “relative binding score”, `H122E` is recorded as 0.802%.
Under “relative binding score”, `R46Q` is recorded as 43.3%.
`S80R` — result for “relative binding score”: 3.72%.
For `K58P`, “relative binding score” read 0.49%.
`L29R` — result for “relative binding score”: -0.989%.
Under “relative binding score”, `T106Y` is recorded as -0.159%.
`Y141K`: “relative binding score” -5.03%.
`D95I` — result for “relative binding score”: -5.9%.
`R45Q`: “relative binding score” -2.43%.
`Q19C`: “relative binding score” 12.2%.
`D92H` — result for “relative binding score”: -8.74%.
`T1F`: “relative binding score” 22.7%.
`R24F`: “relative binding score” 1.11%.
Under “relative binding score”, `S80L` is recorded as 39.3%.

Series 5 — technique: protein binding microarray; form: double-stranded DNA, one strand shown; matrix: in vitro; concentration: not given; baseline: not given; reading: higher = stronger binding
Target: Histone acetyltransferase KAT6A, both winged helices, GST fusion (KAT6A, Homo sapiens, UniProt Q92794, residues 1-181)
Notes: 8-mer, flanks averaged, mean of 2 arrays, mostly near background
Residues (chain): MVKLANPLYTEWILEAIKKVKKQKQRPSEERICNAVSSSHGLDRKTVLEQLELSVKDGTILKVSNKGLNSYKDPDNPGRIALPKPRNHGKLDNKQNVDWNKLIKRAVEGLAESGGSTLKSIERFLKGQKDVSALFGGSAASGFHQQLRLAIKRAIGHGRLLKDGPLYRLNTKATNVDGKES
`GACTCACC` has an E-score of -0.0911.
With `CCGCCACG` the E-score was 0.209.
`TAAGAGTA` has an E-score of -0.225.
`AGCACCAT` has an E-score of -0.156.
For `GGGGTCAA`, the E-score was -0.119.
For `AAGGCCAA`, the E-score was -0.219.
The E-score of `GTGTGGCA` is reported as -0.144.
`CGCTAAAG` gave an E-score of 0.184.
`GAAAGCTA` gave an E-score of -0.182.
For `ACCAGCTC`, the E-score was -0.16.
The E-score of `CATCGGGG` is reported as 0.0993.
For `CTATTGAC`, the E-score was -0.0661.
For `GCCGGCAC`, the E-score was 0.28.
With `CCGTTAAG` the E-score was 0.186.
For `AAGCTAGA`, the E-score was -0.217.
`CTAAGCCC` gave an E-score of 0.0336.
`CAGGTCGG` gave an E-score of 0.0521.
`AAGATGGT` has an E-score of -0.144.
With `TATGACGA` the E-score was 0.00417.
For `TAAGAACA`, the E-score was 0.0285.
The E-score of `CCTGCCTA` is reported as -0.208.
`CCCCCATA` has an E-score of -0.218.
`GATCTGGA` gave an E-score of -0.115.
The E-score of `AAAGAGTG` is reported as -0.145.
With `ATGAGAGC` the E-score was -0.161.

Series 6 — technique: Sort-seq; item: YFP reporter; matrix: E. coli; notes: PhoQ-PhoP variant library; together with: 10 µM Mg2+; baseline: high Mg2+ state; reading: higher = stronger signaling
Substance: PhoQ, residues 284 288 289 292 302 303 AGCYAI
The fold induction was 9.51 (PhoP, residues 12 14 15 18 19 LHHYF (Escherichia coli, UniProt P23836)).
The fold induction was 1.6 (PhoP, residues 12 14 15 18 19 NFFVT (Escherichia coli, UniProt P23836)).
It gave 0.668 for fold induction (PhoP, residues 12 14 15 18 19 TPWTL (Escherichia coli, UniProt P23836)).
The fold induction was 4.32 (PhoP, residues 12 14 15 18 19 VGHWL (Escherichia coli, UniProt P23836)).

For quick reference, copied from above (series 2):
Under “normalised enrichment score”, `V4A` is recorded as -0.487.
`K6C`: “normalised enrichment score” 0.42.
Under “normalised enrichment score”, `A3S` is recorded as -0.73.
`T12Q` — result for “normalised enrichment score”: 0.575.
For `V4Q`, “normalised enrichment score” read 1.09.
`A3W` — result for “normalised enrichment score”: 0.251.
Under “normalised enrichment score”, `V1M` is recorded as 1.22.
For `S2R`, “normalised enrichment score” read 1.84.
Under “normalised enrichment score”, `T12Y` is recorded as 1.63.
`S10G`: “normalised enrichment score” 1.59.
